Experimental data pooled from the literature.
Each numbered part is a random draw from the data of one study; scales do not carry over between parts.

Set 1 — method: RNA Bind-n-Seq; form: RNA; matrix: in vitro; tested at: 1 µM; notes: whole 134-nt RNA, ends assumed; together with: 150 mM KCl; reference: input library; reading: higher = stronger binding
Target: Ras GTPase-activating protein-binding protein 1, C-terminal RGG region (G3BP1, Homo sapiens, UniProt Q13283)
UniProt Q13283, sequence (whole entry, looked up): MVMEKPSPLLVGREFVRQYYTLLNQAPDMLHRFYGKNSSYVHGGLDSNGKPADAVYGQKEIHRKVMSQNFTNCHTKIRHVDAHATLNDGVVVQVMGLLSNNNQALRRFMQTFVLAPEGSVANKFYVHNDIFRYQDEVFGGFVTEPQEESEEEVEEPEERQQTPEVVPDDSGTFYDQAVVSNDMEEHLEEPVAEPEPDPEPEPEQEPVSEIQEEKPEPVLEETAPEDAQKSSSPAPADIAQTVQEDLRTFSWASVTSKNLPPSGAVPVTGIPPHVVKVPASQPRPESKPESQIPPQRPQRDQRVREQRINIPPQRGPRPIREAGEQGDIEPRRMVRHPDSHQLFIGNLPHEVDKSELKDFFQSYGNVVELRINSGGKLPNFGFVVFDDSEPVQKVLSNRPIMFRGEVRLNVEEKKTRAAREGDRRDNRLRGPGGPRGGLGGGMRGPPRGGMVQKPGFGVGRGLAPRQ
All sequences stand within: GGGAGUUCUACAGUCCGACGAUC … UGGAAUUCUCGGGUGUCAAGG
Sequence | log2 enrichment
GUCCUGUGCUACACAUCGUAUGUACCGAAUCGGAAAAAAAGGUUUUUUUGGAAAAAGGAAAGUAUUAUGUUACGCCGUUCGGAUCUGCAC | -2.12
UGGGUGAAGAGGGACAGUUACCUUCCUGUGGGCAGUCAUAAUCUCAAGGCGGCCGCCAAGGCCAAGCUAGGCUAUGAUCCCGUGGAGCUA | -1.63
AGUCCUGUGCUACACAUCGUAUGUACCGAAUCAAAUUUAAAUUUAAAUUUUUUUAAAAAAGUAUUAUGUUACGCCGUUCGGAUCUGCACU | -2.6
CAAGUCCUGUGCUACACAUCGUAUGUACCGAAUCGGGAGGGUUUUUGGGUUUGGGAAAGUAUUAUGUUACGCCGUUCGGAUCUGCACUUC | 0.583
CACAGACAACACGCACCCACACAGACACAGAGGGAAGGGGUUGGGAUGGGGACAGGGUGCACAGCAGGGCGGGGUAGGACGCCAGCCCCU | -0.861
GCAGGAAGUAAAAACAAGUGGAAAUGCUUCGGAUAGUGGCAGGGGUGGGGGUUGCUAAGGAAAGGGUGGGAUGGGAGUGGGUAAAGAGUU | 1.68
GUCCUGUGCUACACAUCGUAUGUACCGAAUCGGGGUUUUUUUGGGGUGGGGAAAGGGGAAAGUAUUAUGUUACGCCGUUCGGAUCUGCAC | 2.49
AAGUCCUGUGCUACACAUCGUAUGUACCGAAUCGGGAAAGGGAAAAAGGGAAAGGGAAAGUAUUAUGUUACGCCGUUCGGAUCUGCACUU | 0.948
GUCCUGUGCUACACAUCGUAUGUACCGAAUCGGGGUUUUUGGGUUUUUGGUUUUUGGGAAAGUAUUAUGUUACGCCGUUCGGAUCUGCAC | -1.29
CUGUGCUACACAUCGUAUGUACCGAAUCGGGUUUUUUUGGGGUUUUUUUGGUUUUUUUGGGGAAAGUAUUAUGUUACGCCGUUCGGAUCU | -1.13
GUCCUGUGCUACACAUCGUAUGUACCGAAUCGGGCCCCCCGGCCCCCCGGCCCCCCGGGAAAGUAUUAUGUUACGCCGUUCGGAUCUGCA | -1.18
CACAGACAACACGCACCCACACAGACACCGAGGGAAGGGGUUGGGAUGGGGACAGGGUGCACAGCAGGGCGGGGUAGGACCCCAGCCCCU | -0.133
UCAAGUCCUGUGCUACACAUCGUAUGUACCGAAUCGGGGCCCGGCCCGGCCCGGAAAGUAUUAUGUUACGCCGUUCGGAUCUGCACUUCC | -1.56
GUCCUGUGCUACACAUCGUAUGUACCGAAUCAAACCCAAACCCCCAAAUUUUUUUAAAAAAGUAUUAUGUUACGCCGUUCGGAUCUGCAC | -0.939

Set 2 — method: RNA Bind-n-Seq; form: RNA; matrix: in vitro; tested at: 365 nM; reference: no-protein control; reading: higher = stronger binding
Target: RNA binding protein fox-1 homolog 2, RRM domain, GST-SBP tag (RBFOX2, Homo sapiens, UniProt O43251-10, residues 100-194)
Notes: natural RNA segment, single round, ends assumed
All sequences stand within: GGGAGUUCUACAGUCCGACGAUC … UGGAAUUCUCGGGUGCCAA
Target sequence (chain): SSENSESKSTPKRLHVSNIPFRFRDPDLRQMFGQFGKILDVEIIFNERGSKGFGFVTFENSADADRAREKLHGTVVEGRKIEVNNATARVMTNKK
Sequence | RBNS enrichment (R)
UUACAUUUGCACCAGCAAUGUAGGAGGGUUCUGAUAUCUCCACGUCCUCACCAACACUUGUGAUUAUGUGUCUUUUAAAAUUAUAGCCAUCCUUGUGGAUGUGAAGUGGU | 0.3
AUAAAACAAUUUUAAGACCAUUCAGGCCACAUAAGAUGAGAAUGCAAUUUUGUAGGAUUACAAAAAAGCCAUUAAUAUGCCAGUCAAGACUACAGUUAAAACUACUCUUG | 0.27
UUUGUUGUUAUGGUUUACGUGAUGAAAAGGAGAAAAAACAGAAUCAUACCUGGGUGGAGAGAGGGAGACAAAUAGCCAUAAACUUCAUCCUGGAGAACAAGUUACCAUGC | 0.511
GCGGGACCCCACCACGAGUGCUUCCAGAACCGCAACAGGAUAUCAGUCCUGCAUCUUCUGUGUAGUAACAGGGUCCUUCGGGCUCCACAGUCAGUGCAGGUGGCUAGUCA | 0.263
ACCCAAAAGUCAAUGUAGACCUACGAAACGGUCAGGUGAUGGGCUAGGGACGUAUCUUCAAACUCCAUUUCUUCCUCUGUAGUAGCCCAGUCCAGGACUUUGGAACCCUG | 0.63
AUUUAUGUUUUUAGUUUAUAUGCAAAGAAUUGUGAUAAUUUUAUAAUAAAUAUUUUUAUUAUAAUAGAAUGUGGUCUUAUAAAAUUCUUUUCUUGAAUAAUCUCAAAGUA | 6.05
CUGAGCAACUGGGCACGUGCUAGUACGCACCCCCUCCUACUCUAACUGUGCUAGCUCUUGGGUUGAGGAAUGGAAUGGGUAGCCUUCUGCUUACUGGAGAUGCACAGAGA | 3.13
ACUGACAUCAGUGUCCAAUAUAUGGUAUAUUUUUAUAAUAUAAUAUCCUAGUAUGAUUGGUUAUAUCAAGAAUUGACAAGUGCAGAUAAAGACCUUUCCCAUAGGAGUUC | 0.626
GAUGCACCUGCCUCCCUUCAUCCUCUCUCUGGGGCUGCGUUGCCUCGGCAAUGCCCCUUUUGGAGCAUGGAAGGGCUUCAGGGAUGGGGCAGCCUGGAAGGACAGGUGGA | 0.75
AAGCUUGAAUCUGUGUAGUCUCUGACCCUAAGUGAGAAUGACUUUGGUGUCAGGGUCCUGUGGAGUUGUGCCCCACACUGAGCUCUGUACAGUAUUGCUGCUCAUACACU | 0.413
UUUUGCAGAGGAACCUGCCAGAGAUUUAUUGGCUGGUCAGUCUCUUGUGAAAUAGUAUCAUGUGAGAAACAGUUUGUAGAAAAAAACUAUACCUGGGAAGACCUUUGCAA | 0.584
UACUCAGUGUUCUAAUUUUUAAAAAAUUUUAUCUGCAUAUUUGCAUCAAAUAUUUAUGUGUAAAAUGUAUGUUUUACCUCCUUAAAAUGCCUAAAAGUUAGUUAAUAGUU | 1.03

Set 3 — method: universal PBM; form: double-stranded DNA, one strand shown; matrix: in vitro; tested at: not given; reading: higher = stronger binding
Target: Sal-like protein 4, full length isoform B (SALL4, Homo sapiens, UniProt Q9UJQ4-2, residues 1-616)
Notes: 8-mer, flanks averaged, mean of replicates
Sequence | E-score
CACAAGGG | -0.31
GGCACACA | -0.134
ATTATTTC | 0.363
ATTACAAG | 0.319
AGGCGTGA | -0.163
AAGTTTGG | 0.126
ACTGCTTA | 0.075
GTATAGGA | 0.156
CATTAATA | 0.399
ACCGTTTG | -0.136
ACGCCTAG | 0.00161
TAGGAGAA | 0.0776
CAAGATGC | 0.152
GTCGCTTA | -0.0605
AGAATGAG | 0.0474
GAGCTATC | -0.145
GTCCTCAC | -0.169
ACCAGGGG | -0.187
AGTTTGTC | 0.106
CGCATACA | 0.133
GTGGCCAA | -0.264
TGAGGACA | 0.0179

Set 4 — method: protein-binding microarray; form: double-stranded DNA, one strand shown; matrix: in vitro; tested at: 2540 nM top; notes: 60-bp whole probe; together with: salmon DNA 0.4 mg/ml; reference: random background probes; reading: higher = stronger binding; all sequences stand within: GCCTAGCAC … GTCTTGATTCGCTTGACGCTGCTG
Target: Interferon regulatory factor 3, full length, phosphomimetic (IRF3, Homo sapiens, UniProt Q14653, residues 1-427, S386D/S396D/S398D/S402D/T404D/S405D)
Construct (chain): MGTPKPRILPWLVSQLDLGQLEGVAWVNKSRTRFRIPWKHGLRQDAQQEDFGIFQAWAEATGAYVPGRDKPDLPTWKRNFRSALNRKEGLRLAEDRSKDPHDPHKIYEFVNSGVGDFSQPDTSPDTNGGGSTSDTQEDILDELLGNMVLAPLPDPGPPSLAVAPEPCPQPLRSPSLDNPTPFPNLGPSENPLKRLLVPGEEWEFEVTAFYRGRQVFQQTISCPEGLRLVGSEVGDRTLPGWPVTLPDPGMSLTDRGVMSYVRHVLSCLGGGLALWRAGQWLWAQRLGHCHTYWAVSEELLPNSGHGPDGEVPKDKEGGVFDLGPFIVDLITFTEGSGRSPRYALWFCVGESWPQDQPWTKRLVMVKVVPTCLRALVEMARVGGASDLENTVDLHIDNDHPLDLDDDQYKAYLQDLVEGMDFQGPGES
Sequence | fitted relative affinity
CTTCATGTGCCTTTATATACGTGCTAG | 0.677 z-score
GACGGTATTGACTTTCGGGACGTGCTA | 0.537 z-score
GACGGTTTCGGGTATCGGGAAGTGCTA | 4.88 z-score
TTAGATCTGGGGTTTCGATTAGTGCTA | 1.13 z-score
TAAGGTTTCCTTATCCTTTAGTGCTAG | 7.91 z-score
GTCGGACTGCTTATCCTGACGTGCTAG | 0.291 z-score
TGAGGTTTCGACTTTCGGTTAGTGCTA | 3.59 z-score
GACGGTATCGGTATAGGGACGTGCTAG | 3.58 z-score
GACGGTTTCGACACGGGGGACGTGCTA | 2.81 z-score
ATGAGTCTCAATATTAGAGTGTGCTAG | -0.0724 z-score
TTAGGACTGGGACTGGCTTAGTGCTAG | -0.993 z-score
TTAGGTTTCCTACTGCTCTAGTGCTAG | 4.9 z-score
TTCATTTTCCAAATGCCCTCGTGCTAG | 4.16 z-score
GACGATTTAGGGTTTCGAGACGTGCTA | 1.24 z-score
TTAGAACTGAGTCTTGATTAGTGCTAG | -0.458 z-score
TCAATTTTGGTTTTCCTACTGTGCTAG | 3.28 z-score
GACGGGCTGGGACTGGGGACGTGCTAG | -1.2 z-score
TCATTTTTTTTAATTGAACTGTGCTAG | 1.03 z-score
GACGATTTCAGTATCGAGGCGTGCTAG | 2.02 z-score
TCATAAATCTTTGTTGGAACTGTGCTA | -0.0839 z-score
TGAGGTTTCCTACTGCTTTAGTGCTAG | 4.35 z-score
GACGGACTGGACGCTGGGGACGTGCTA | -0.763 z-score

Excerpt of the above (set 4):
Sequence | fitted relative affinity
TTCATTTTCCAAATGCCCTCGTGCTAG | 4.16 z-score
GACGATTTAGGGTTTCGAGACGTGCTA | 1.24 z-score
TTAGAACTGAGTCTTGATTAGTGCTAG | -0.458 z-score
TCAATTTTGGTTTTCCTACTGTGCTAG | 3.28 z-score
GACGGGCTGGGACTGGGGACGTGCTAG | -1.2 z-score
TCATTTTTTTTAATTGAACTGTGCTAG | 1.03 z-score
GACGATTTCAGTATCGAGGCGTGCTAG | 2.02 z-score
TCATAAATCTTTGTTGGAACTGTGCTA | -0.0839 z-score
TGAGGTTTCCTACTGCTTTAGTGCTAG | 4.35 z-score
